Published values collected from several papers.
± gives the spread as reported.

SMILES	assay	test system	setting	endpoint	value
Cl.[2H]C([2H])([2H])CC(=O)c1cnc(NC(=O)C2CC2)cc1Nc1cccc(-c2ncn(C([2H])([2H])[2H])n2)c1OC	–	human, fasted, multiple dose	oral, 40 mg twice daily, tablet, day 14, geometric mean	terminal elimination rate constant	1.56e-05 s⁻¹
C[C@@]1(c2cc(NC(=O)c3ccc(C#N)cn3)ccc2F)C=CSC(N)=N1	–	healthy young male human, plasma	oral, 1 mg, single dose	terminal half-life	9 h
CN(CC#N)C(=O)C[C@H](Nc1nc2ccccc2[nH]1)c1cccc(C(F)(F)F)c1	–	human	intravenous infusion, 6 mg/kg, 1 mg/mL formulation	terminal half-life	4.2 ± 0.8 h
NCCONC(=O)[C@@H]1CC[C@@H]2CN1C(=O)N2OS(=O)(=O)O	–	human, male, plasma	intravenous infusion, 2 g, single dose	terminal elimination rate constant	8.17e-05 s⁻¹
COc1nnc2ccc(N3CCC(c4ccc(OCCN5CCN(C)C(=O)[C@H]5C)cc4)CC3)nn12	–	human, plasma	oral, 40 mg once daily, single dose, monotherapy	terminal half-life	1.9 h
CCCn1cc(C)c2c(=O)[nH]c(-c3cc(S(=O)(=O)N4CCN(CC)CC4)ccc3OCC)nc21	LC-MS/MS	human, plasma	100 mg, crossover trial, alone	terminal elimination rate constant	3.75e-05 ± 1.52e-05 s⁻¹
CN1C(=O)[C@@H](NC(=O)c2nnc(Cc3ccccc3)[nH]2)COc2cccnc21	–	human, plasma	oral, 600 mg once daily, day 14, geometric mean	terminal half-life	8.2 h
Cc1cc(-c2nnc(N)nc2-c2ccc(F)cc2)cc(Cl)n1	–	human patients, plasma	oral, 200 mg capsule, single dose, arithmetic mean	terminal half-life	10.6 h
Cc1cc(-c2nccc3c2ccn3CC(=O)Nc2ccc(-c3cnccn3)cn2)ccn1	–	human, plasma	oral, 15 mg once daily, day 1, geometric mean	terminal half-life	9.74 h
CN(C)CCCNC(=O)/C(=C/CCCCC(=O)NO)COc1cccc2ccccc12	–	human patients	intravenous, 250 mg/m2, day 1, single dose, mean	terminal volume of distribution	56.8 L
